# Experimental data gathered from unrelated publications.
# A part holds a random share of what one study measured.

# Block 1
# Target: Sal-like protein 4, full length isoform B (SALL4, Homo sapiens, UniProt Q9UJQ4-2, residues 1-616)
# Technique: universal PBM
# Molecule type: double-stranded DNA, one strand shown
# Sample: in vitro
# Concentration: not given
# Setting: 8-mer, flanks averaged, mean of replicates
# Direction: higher = stronger binding
Sequence,E-score
ACTTGAGA,0.0997
AAATTACC,0.214
GATCCAGA,-0.0877
ACGGCAGC,-0.214
GCTTCGAA,-0.0889
GGCGCCGA,-0.295
AGACTACT,0.101
GCGGTCCA,-0.245

# Block 2
# Target: Eukaryotic initiation factor 4A-I (EIF4A1, Homo sapiens, UniProt P60842, residues 1-406, full length assumed)
# Chain of UniProt P60842 (whole entry, looked up): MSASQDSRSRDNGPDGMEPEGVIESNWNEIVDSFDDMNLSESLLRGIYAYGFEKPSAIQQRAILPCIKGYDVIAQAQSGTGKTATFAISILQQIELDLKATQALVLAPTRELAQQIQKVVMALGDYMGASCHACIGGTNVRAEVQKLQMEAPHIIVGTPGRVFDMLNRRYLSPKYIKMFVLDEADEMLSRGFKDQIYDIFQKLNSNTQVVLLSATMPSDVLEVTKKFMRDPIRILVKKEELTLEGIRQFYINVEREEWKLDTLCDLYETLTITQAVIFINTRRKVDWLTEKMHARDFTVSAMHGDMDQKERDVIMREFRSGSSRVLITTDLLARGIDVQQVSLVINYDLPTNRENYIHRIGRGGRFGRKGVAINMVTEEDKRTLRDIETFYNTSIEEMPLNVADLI
# Technique: RNA Bind-n-Seq
# Molecule type: RNA
# Sample: in vitro
# Concentration: 15 pmol
# Setting: 4-mer, random 30-nt RNA, single round
# Together with: DMSO vehicle, 2 mM AMP-PNP
# Reference: input library
# Direction: higher = stronger binding
Sequence,4-mer enrichment
UCGA,0.667 fold
AUGU,0.816 fold
AAAA,1.52 fold
AAGG,1.12 fold
UUCA,0.913 fold
GUUA,0.761 fold
ACUU,0.878 fold
CGGG,0.746 fold

# Block 3
# Target: RNA binding protein fox-1 homolog 2, RRM domain, GST-SBP tag (RBFOX2, Homo sapiens, UniProt O43251-10, residues 100-194)
# Technique: RNA Bind-n-Seq
# Molecule type: RNA
# Sample: in vitro
# Concentration: 365 nM
# Setting: natural RNA segment, single round, ends assumed
# Reference: no-protein control
# Direction: higher = stronger binding
# Shared flanks, not repeated: GGGAGUUCUACAGUCCGACGAUC … UGGAAUUCUCGGGUGCCAA
# Construct (chain): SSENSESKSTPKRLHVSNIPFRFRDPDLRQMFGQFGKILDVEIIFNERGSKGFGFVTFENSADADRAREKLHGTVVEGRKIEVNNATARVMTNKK
Sequence,RBNS enrichment (R)
UGGUGGCUAGGAAGGCAGAGCGCCCUCAGCCCAGCAUAUAGCUGUGAGUAUGUAAUAAAUCACUGCCGGCUCCUGUGGCUCGUUCAUUCUGCUCCUCCCCCACCCCCACC,0.707
CAGUGGUGGCGUGAGCAGUAGGUGAAGUGGUUGGUGAAGGAUGAGCCUCGCUCGUGAACUUCCUGUGGUAACACUUGGGAGCCUGGCCUUUUCCCAGUAUUUCCUGAAUU,1.17
UUAGCUUGUGCGUGUCAAAAGAAGGAACAGCUCGUUCUGCUUCCUGCUGAGUCGGUGAAUUCUUUGCUUUCUAAACUCUUCCAGAAAGGACUGUGAGCAAGAUGAAUUUA,0.879
UGGUCCUAACCCAGACCCAGGGUCUGGAAGCUUAAUGUUGAGUUGGUGACUCCAGCCUCUUUCUCCUGGAGGUCACAAGAUGAUGAUUGCGUAGAUGUUGCCUGGUGCAA,0.703
UUUGAAUCCUUAUGUUGAUGAUGGUGUCUUUCUACACACUCACUGCAACUACUCAGGAAUUAUAAAGAUUUUCUGAAAUCUGAGAAGUGGAAUAAGGAAACCCAGUGGAG,0.473
AAAUUUCCCAUGUAAGCUGCAGUUUCUAUCUUUAGCCCAUCAUCAUUUUCUGCCCCCCCAAAAUCUGUUGAAAUGAUUCACUGAUGCAAAACAUUCACCCGUAAUAGACU,0.758
AAAAGUUUUGGAUUUUGGAGCAUUUCGGAUUUUGGAUUUUUGGAUUAGGGUUGCUCAACCCAUAUUAUUGGCUGUACAUCCUGGUCACUUCUGACUUCUGUUUUUACUAA,0.305
UGUAAUUUUAGAUCGGGAAGAGAGUGUGUGUCUAAUUCUUUUGAGUAUGCCUGUGCCAUCAGAGAAGAGAUCCCACCCCAGUAGGAAGGUAUGGGGCAGUCCAGUUUAUA,1.75

# Block 4
# Target: HLA class I histocompatibility antigen, A alpha chain, allele A*80:01 (Homo sapiens, UniProt P04439)
# Read-out: peptide-MHC binding
# Molecule type: peptide
# Concentration: concentration not given
Molecule,binding
CSDSDGLAP,inactive
GVQGFIFFF,inactive
VERRLVKVL,inactive
AIDLDPVVY,inactive
QYLFSLTYV,inactive
KCRVKMEKL,inactive
LSIIFGRSY,inactive
GTEKLTITY,inactive
STGKSIKFK,inactive
IVFMWAIHH,inactive
MANIFRGSY,inactive
PLTNQRYRV,inactive
MTKEEFTRY,inactive
YADGGQWYN,inactive
QLKSRAAVL,inactive
YEPEMQAQV,inactive
LPEAYQWHI,inactive
YYFSYPLFV,inactive
VVRVRRELL,inactive
GTEEIRSLF,inactive
ELRQLAQSL,inactive
RASHFRKLF,inactive
GLYLYRFHV,inactive
IANTTDHFF,inactive
RVHFHRFMY,active

# Other studies, line by line
# Concentration: 10 µM
SMILES,target or system,read-out,technique,endpoint,value
OC[C@@H]1CN(C2CCCC2)C[C@H]1c1nc(-c2ccncc2)no1,HEK-293T-ACE2-TMPRSS2,,cell count,viability,106%
O=C(O)c1cc(-c2ccc(C3CCNCC3)cc2)c2ccc(-c3ccc(C(F)(F)F)cc3)cc2c1,"SLC6A4 (Homo sapiens, UniProt P31645)",binding,radioligand binding,inhibition,-2.04%

# Some of these lines once more (block 4):
Molecule,binding
QYLFSLTYV,inactive
KCRVKMEKL,inactive
LSIIFGRSY,inactive
GTEKLTITY,inactive
